# Assay results collected from several papers.
# Every numbered part comes from another study and shows a few of its results, in no order. Values joined by “and” are separate records of one study, mostly repeats; a detail may differ.
# Chain of UniProt O15197 (whole entry, looked up): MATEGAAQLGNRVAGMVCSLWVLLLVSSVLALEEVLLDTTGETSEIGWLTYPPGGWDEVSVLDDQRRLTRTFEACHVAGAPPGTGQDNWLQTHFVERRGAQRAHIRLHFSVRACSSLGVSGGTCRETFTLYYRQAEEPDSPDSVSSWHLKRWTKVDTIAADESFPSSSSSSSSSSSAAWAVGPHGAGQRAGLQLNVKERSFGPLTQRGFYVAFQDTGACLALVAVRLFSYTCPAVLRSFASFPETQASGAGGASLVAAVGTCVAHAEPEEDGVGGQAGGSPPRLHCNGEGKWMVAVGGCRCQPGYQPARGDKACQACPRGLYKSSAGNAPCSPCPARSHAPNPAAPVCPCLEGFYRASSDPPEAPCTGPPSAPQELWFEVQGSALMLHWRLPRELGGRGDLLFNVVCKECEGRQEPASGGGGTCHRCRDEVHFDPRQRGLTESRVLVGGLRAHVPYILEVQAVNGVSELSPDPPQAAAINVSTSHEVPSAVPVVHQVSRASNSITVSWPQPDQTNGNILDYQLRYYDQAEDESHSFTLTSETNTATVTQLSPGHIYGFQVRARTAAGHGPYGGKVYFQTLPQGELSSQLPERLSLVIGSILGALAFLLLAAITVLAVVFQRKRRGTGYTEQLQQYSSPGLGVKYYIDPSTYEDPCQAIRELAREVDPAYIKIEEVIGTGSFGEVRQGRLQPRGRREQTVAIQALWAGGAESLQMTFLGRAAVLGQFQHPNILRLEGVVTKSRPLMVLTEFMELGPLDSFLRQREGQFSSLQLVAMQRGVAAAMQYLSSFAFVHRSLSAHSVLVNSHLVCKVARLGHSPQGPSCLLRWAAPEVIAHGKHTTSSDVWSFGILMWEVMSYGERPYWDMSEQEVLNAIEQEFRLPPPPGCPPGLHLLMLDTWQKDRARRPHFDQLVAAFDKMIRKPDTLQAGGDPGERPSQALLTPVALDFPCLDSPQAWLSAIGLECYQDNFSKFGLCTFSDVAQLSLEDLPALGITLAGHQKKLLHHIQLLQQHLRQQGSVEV
# Chain of UniProt Q9HCP0 (whole entry, looked up): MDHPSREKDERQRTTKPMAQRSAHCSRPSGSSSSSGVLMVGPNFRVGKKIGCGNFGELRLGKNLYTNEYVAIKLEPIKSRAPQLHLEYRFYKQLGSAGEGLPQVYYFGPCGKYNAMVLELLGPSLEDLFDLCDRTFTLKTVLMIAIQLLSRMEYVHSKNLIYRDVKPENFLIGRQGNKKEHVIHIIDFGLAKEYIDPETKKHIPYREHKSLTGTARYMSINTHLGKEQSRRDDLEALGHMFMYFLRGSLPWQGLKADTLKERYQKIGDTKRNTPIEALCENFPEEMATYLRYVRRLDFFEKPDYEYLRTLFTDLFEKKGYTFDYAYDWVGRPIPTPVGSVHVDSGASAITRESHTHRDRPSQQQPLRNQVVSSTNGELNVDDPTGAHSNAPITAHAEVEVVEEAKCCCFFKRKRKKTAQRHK
# Chain of UniProt P23458 (whole entry, looked up): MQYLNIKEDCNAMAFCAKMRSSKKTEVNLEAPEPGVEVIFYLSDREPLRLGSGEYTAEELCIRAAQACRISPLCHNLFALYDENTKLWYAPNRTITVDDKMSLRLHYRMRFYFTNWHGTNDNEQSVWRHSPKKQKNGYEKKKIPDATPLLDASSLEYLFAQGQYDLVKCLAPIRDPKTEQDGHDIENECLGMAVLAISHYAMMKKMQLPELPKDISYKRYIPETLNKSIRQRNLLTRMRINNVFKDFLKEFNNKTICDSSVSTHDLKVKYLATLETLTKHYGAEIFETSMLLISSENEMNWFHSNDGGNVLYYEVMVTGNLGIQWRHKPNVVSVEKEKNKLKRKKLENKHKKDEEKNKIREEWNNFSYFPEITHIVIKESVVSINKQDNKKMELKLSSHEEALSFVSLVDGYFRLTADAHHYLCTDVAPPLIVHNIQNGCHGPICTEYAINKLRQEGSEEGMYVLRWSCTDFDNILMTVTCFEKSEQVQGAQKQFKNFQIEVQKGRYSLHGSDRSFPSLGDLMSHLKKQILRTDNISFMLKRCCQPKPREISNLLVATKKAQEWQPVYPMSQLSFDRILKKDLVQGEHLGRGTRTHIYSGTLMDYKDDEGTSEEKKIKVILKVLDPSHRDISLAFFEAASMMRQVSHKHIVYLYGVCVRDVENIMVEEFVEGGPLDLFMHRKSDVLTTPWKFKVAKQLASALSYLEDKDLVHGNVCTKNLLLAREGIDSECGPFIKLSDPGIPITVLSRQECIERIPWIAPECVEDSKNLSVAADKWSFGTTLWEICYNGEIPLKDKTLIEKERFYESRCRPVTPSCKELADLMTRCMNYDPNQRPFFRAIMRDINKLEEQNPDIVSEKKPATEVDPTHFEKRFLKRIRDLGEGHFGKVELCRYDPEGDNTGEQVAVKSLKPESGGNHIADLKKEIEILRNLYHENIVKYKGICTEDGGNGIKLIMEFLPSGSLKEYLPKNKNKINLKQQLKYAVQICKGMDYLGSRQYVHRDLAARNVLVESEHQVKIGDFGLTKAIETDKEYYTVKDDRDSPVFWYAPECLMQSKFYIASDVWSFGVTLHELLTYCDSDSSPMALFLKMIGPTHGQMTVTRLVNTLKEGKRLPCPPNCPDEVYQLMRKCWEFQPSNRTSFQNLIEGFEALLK
# Chain of UniProt P53355 (whole entry, looked up): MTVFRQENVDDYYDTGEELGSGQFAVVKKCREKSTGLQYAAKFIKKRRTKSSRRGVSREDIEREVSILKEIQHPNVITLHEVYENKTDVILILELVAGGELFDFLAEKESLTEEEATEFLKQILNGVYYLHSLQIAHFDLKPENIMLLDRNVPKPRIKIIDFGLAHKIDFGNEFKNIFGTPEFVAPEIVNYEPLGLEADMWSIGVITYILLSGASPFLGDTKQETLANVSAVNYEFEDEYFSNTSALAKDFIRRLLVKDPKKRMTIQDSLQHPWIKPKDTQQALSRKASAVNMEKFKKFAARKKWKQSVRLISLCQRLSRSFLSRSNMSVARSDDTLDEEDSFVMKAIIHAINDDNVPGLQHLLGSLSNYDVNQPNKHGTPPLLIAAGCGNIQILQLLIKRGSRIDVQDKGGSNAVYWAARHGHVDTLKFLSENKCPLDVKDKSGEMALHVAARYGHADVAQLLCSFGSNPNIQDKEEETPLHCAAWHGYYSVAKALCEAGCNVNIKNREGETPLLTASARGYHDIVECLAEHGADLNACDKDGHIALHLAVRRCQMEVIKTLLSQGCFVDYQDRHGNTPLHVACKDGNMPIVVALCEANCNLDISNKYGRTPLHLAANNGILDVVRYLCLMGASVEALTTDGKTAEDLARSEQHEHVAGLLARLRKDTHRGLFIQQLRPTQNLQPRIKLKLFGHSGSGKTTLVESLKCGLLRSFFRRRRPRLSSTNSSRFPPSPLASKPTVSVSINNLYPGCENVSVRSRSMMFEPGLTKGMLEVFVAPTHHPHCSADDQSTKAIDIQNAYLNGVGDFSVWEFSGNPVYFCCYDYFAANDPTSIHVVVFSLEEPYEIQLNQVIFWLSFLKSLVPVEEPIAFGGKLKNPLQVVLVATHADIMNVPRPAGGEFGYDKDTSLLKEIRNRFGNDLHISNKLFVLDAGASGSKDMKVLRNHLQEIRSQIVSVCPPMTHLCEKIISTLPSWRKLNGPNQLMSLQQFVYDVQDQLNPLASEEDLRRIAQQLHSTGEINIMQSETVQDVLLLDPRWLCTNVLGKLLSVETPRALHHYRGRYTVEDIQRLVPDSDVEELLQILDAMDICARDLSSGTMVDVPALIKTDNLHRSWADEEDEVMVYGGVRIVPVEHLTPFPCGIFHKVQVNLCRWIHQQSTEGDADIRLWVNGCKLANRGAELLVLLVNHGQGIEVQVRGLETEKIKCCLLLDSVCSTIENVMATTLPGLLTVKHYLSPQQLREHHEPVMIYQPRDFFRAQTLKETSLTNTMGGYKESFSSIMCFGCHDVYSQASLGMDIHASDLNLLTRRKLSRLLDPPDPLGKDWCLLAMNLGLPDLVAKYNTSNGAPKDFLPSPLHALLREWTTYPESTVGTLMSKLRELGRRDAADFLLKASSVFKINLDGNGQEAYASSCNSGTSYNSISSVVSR
# Chain of UniProt Q13523 (whole entry, looked up): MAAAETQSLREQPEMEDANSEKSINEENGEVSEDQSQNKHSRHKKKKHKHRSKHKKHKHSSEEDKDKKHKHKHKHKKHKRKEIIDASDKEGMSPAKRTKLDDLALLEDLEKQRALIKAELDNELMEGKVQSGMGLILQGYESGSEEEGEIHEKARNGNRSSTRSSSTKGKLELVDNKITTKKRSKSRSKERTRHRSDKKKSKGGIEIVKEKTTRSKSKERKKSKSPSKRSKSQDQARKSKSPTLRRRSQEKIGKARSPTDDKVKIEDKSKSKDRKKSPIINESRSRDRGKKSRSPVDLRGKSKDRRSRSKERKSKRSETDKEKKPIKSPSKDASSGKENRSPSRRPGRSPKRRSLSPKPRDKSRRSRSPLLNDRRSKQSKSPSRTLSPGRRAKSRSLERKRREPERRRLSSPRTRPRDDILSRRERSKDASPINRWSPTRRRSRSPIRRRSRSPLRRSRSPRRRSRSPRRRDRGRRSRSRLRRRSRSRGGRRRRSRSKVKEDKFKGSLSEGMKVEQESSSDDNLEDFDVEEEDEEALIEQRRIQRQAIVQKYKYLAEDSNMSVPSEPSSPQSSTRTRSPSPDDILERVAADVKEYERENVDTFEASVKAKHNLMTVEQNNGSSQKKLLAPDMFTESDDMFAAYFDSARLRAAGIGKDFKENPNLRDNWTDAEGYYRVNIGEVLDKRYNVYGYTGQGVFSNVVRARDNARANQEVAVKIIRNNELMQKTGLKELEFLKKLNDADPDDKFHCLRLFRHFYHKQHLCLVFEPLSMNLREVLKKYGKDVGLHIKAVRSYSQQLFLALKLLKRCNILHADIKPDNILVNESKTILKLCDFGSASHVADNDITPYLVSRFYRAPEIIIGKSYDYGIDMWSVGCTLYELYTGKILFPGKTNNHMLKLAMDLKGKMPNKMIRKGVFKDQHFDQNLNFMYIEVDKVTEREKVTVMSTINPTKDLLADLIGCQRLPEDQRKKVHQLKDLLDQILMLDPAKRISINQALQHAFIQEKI

# Sample 1 — cell line: A-375; tested at: 100 µM; time: 36 h
SMILES,viability [%]
COc1ccc([C@@H]2CC(=O)c3c(O)cc(O[C@@H]4O[C@H](CO[C@@H]5O[C@@H](C)[C@H](O)[C@@H](O)[C@H]5O)[C@@H](O)[C@H](O)[C@H]4O)cc3O2)cc1O,110
Nc1nc(CC(=O)Nc2ccc(CCNC[C@H](O)c3ccccc3)cc2)cs1,95.9
COc1cccc2c1C(=O)c1c(O)c3c(c(O)c1C2=O)C[C@@](O)(C(=O)CO)C[C@@H]3O[C@H]1C[C@H](N)[C@@H](O)[C@H](C)O1,23.3
COc1cc(NS(C)(=O)=O)ccc1Nc1c2ccccc2nc2ccccc12,9.75
CO/N=C(\C(=O)N[C@@H]1C(=O)N2C(C(=O)O)=C(COC(N)=O)CS[C@H]12)c1ccco1,118

# Sample 2 — tested at: 1 µM
# SMILES: CN(C)C(=O)Cn1cc(-c2nc([C@@](C)(c3ccc(-c4cnc(N)nc4)cc3)C3CC3)no2)cn1
target,read-out,technique,remaining binding [%]
"DAPK1 (Homo sapiens, UniProt P53355)",cell-free assay,competition with immobilised ligand,82
"TEK (Homo sapiens, UniProt Q02763)",cell-free assay,competition with immobilised ligand,100
"CDK9 (Homo sapiens, UniProt P50750)",cell-free assay,competition with immobilised ligand,96
"EPHB6 (Homo sapiens, UniProt O15197)",cell-free assay,competition with immobilised ligand,76
"PTK2 (Homo sapiens, UniProt Q05397)",cell-free assay,competition with immobilised ligand,100
"Tyrosine-protein kinase JAK1, JH2 (JAK1, Homo sapiens, UniProt P23458)",cell-free assay,competition with immobilised ligand,33
"EPHB3 (Homo sapiens, UniProt P54753)",cell-free assay,competition with immobilised ligand,100
"FLT3 (Homo sapiens, UniProt P36888, N841I)",cell-free assay,competition with immobilised ligand,83
"PRPF4B (Homo sapiens, UniProt Q13523)",cell-free assay,competition with immobilised ligand,86
"PAK5 (Homo sapiens, UniProt Q9P286)",cell-free assay,competition with immobilised ligand,100
"CSNK1G1 (Homo sapiens, UniProt Q9HCP0)",cell-free assay,competition with immobilised ligand,100
"MAP3K7 (Homo sapiens, UniProt O43318)",cell-free assay,competition with immobilised ligand,50
"Tyrosine-protein kinase ABL1, phosphorylated (ABL1, Homo sapiens, UniProt P00519, F317I)",binding,,100
"PLK3 (Homo sapiens, UniProt Q9H4B4)",cell-free assay,competition with immobilised ligand,89
"CSNK1G2 (Homo sapiens, UniProt P78368)",cell-free assay,competition with immobilised ligand,100
"ALK (Homo sapiens, UniProt Q9UM73)",cell-free assay,competition with immobilised ligand,85
"TYRO3 (Homo sapiens, UniProt Q06418)",cell-free assay,competition with immobilised ligand,100
"LATS1 (Homo sapiens, UniProt O95835)",cell-free assay,competition with immobilised ligand,93

# Sample 3 — route: intrathecal; dose: 100 nmol
# SMILES: COc1cc(C(=O)OCCCN2CCCN(CCCOC(=O)c3cc(OC)c(OC)c(OC)c3)CC2)cc(OC)c1OC
species,time,licking duration
"female mouse, formalin pain",0 to 5 min,186 s and 213 s and 172 s and 158 s
"female mouse, formalin pain",5 to 10 min,35.5 s and 47.3 s and 61.1 s and 41.3 s
"male mouse, formalin pain",0 to 5 min,119 s and 200 s and 143 s and 219 s

# Sample 4 — read-out: binding; tested at: 1 µM
# Compound: Cc1ccc(NC(=O)c2ccnc(C(F)(F)F)c2)cc1-c1cc(OCCO)nc(N2CCOCC2)c1
target,technique,remaining binding [%]
"MAP2K7 (Homo sapiens, UniProt O14733)",,100
"PHKG1 (Homo sapiens, UniProt Q16816)",,100
"MAP2K5 (Homo sapiens, UniProt Q13163)",competition with immobilised ligand,95
"ACVR2A (Homo sapiens, UniProt P27037)",competition with immobilised ligand,90
"TXK (Homo sapiens, UniProt P42681)",competition with immobilised ligand,97

# Sample 5 — organism: Sarcocystis neurona; read-out: parasite growth; tested at: 10 µM; setting: secondary screen
SMILES,inhibition [%]
CN(CCOc1ccc(CC2SC(=O)NC2=O)cc1)c1ccccn1 (stereo not drawn),8.4
CC1(C)S[C@@H]2[C@H](NC(=O)Cc3ccccc3)C(=O)N2[C@H]1C(=O)[O-].[K+],-42.3
CSc1nc2cc(Cl)c(Oc3cccc(Cl)c3Cl)cc2[nH]1,-9.2
CC1=C(/C=C/C(C)=C/C=C/C(C)=C/C(=O)O)C(C)(C)CCC1,-45.2

# Other studies, line by line
SMILES,species,dose,time,endpoint,result
CC(C)(C)c1cnc(CSc2cnc(NC(=O)C3CCN(CCCCCSc4cccc5c4CN(C4CCC(=O)NC4=O)C5=O)CC3)s2)o1 (stereo not drawn),"NSG mouse, HuT78 xenograft",dose not given,end of study,tumour weight,0.502 g and 0.359 g and 0.383 g and 0.32 g and 0.414 g

# Repeated from above (sample 2):
target,read-out,technique,remaining binding [%]
"FLT3 (Homo sapiens, UniProt P36888, N841I)",cell-free assay,competition with immobilised ligand,83
"TYRO3 (Homo sapiens, UniProt Q06418)",cell-free assay,competition with immobilised ligand,100
"TEK (Homo sapiens, UniProt Q02763)",cell-free assay,competition with immobilised ligand,100
"CSNK1G2 (Homo sapiens, UniProt P78368)",cell-free assay,competition with immobilised ligand,100
"EPHB6 (Homo sapiens, UniProt O15197)",cell-free assay,competition with immobilised ligand,76
